Experimental data gathered from unrelated publications.
Compare with care: the assays were run in different laboratories.
Organism: Bacillus subtilis

`CC(C)CCCCCCCCCCCCc1cc(O)cc(O)c1` gave an MIC of 64 µg/mL (microbial growth, broth dilution; 168).
For `S=c1n(CN2CCN(c3ccccn3)CC2)nc(C23CC4CC(CC(C4)C2)C3)n1-c1ccccc1`, the MIC was 0.5 µg/mL (two-fold dilution; IFO 3007; 24 h, 36 °C).
`O=C(O)c1ccc(-n2cc(/C=N/Nc3cccc(Cl)c3F)c(-c3ccc4ccccc4c3)n2)cc1` has an MIC of 3.12 µg/mL (microbial growth; ATCC6623).
`CC1(C)S[C@@H]2[C@H](NC(=O)[C@H](NC(=O)C3=C(O)C(c4ccccc4F)NC3=O)c3ccccc3)C(=O)N2[C@H]1C(=O)O` (some centres unmarked) gave an MIC of 1.56 µg/mL (microbial growth, broth dilution; ATCC23857).
With `COc1ccc(-c2csc(N/N=C(\C)c3ccc4c(c3)sc3nc(=O)c(C#N)cn34)n2)cc1` the MIC was < 47 µg/mL (microbial growth, broth dilution).
`CN(C)c1ccc2c(CC(=O)NCCCn3cc(CCCCC(=O)Oc4c(Br)cc(Br)cc4-c4[nH]c(Br)c(Br)c4Br)nn3)cc(=O)oc2c1` has an MIC of 0.25 µg/mL (microbial growth, broth dilution; 168; 20 h).
The MIC of `NC(=O)Nc1nc2cc(Br)ccc2[nH]c1=O` is reported as > 128 µg/mL (broth microdilution; 3610; 20 h, 37 °C).
With `COC(=O)CCCCc1cn(CCCNC(=O)Cc2cc(=O)oc3cc(N(C)C)ccc23)nn1` the MIC was > 64 µg/mL (microbial growth, broth dilution; 168; 20 h).
For `CCCCOC1C(C)C2C(C=CC3C(C)C=CC=CC(C)OC(=O)C(C)C(=O)C(Cl)(Cl)C(=O)C32)CC1(C)O` (centres unmarked), the MIC was 0.8 µg/mL (microbial growth, broth dilution).
For `CC1=CC(C)=[N+]2C1=Cc1ccc(CCC(=O)NCCCn3cc(CCCCC(=O)Oc4ccccc4C(=O)c4cc(Cl)c(Cl)n4-c4c(C(=O)c5ccccc5O)[nH]c(Cl)c4Cl)nn3)n1[B-]2(F)F`, the MIC was 0.25 µg/mL (microbial growth, broth dilution; 168; 20 h).
For `C[C@@H]1C(=O)O[C@@H](C)/C=C/C=C\[C@@H](C)[C@@H]2C=C[C@@H]3C[C@@]4(C)O[C@H]4[C@@H](C)[C@H]3[C@@H]2C(=O)C(Cl)(Cl)C1=O`, the MIC was 0.025 µg/mL (microbial growth, broth dilution).
The MIC of `COc1ccccc1C(=O)c1c(-n2c(C(=O)c3ccccc3OC)cc(Cl)c2Cl)c(Cl)c(Cl)n1C` is reported as > 64 µg/mL (microbial growth, broth dilution; 168; 20 h).
With `C/C(=N\NC(N)=S)c1ccc2c(c1)sc1nc(=O)c(C#N)cn12` the MIC was < 59 µg/mL (microbial growth, broth dilution).
`O=C(c1cc(Cl)c(Cl)[nH]1)c1ccccc1O` has an MIC of 16 µg/mL (microbial growth, broth dilution; 168; 20 h).
`CCCCCCCCCCCCC[C@@H](O)Cc1cc(O)cc(O)c1` has an MIC of 16 µg/mL (microbial growth, broth dilution; 168).
With `CCCCCCSCC1OC(OC2C(N)CC(N)C(OC3OC(CN)C(O)CC3N)C2O)C(O)C(N)C1O` (centres unmarked) the MIC was 150 µg/mL (168).
The MIC of `Nc1nc2ccc(Oc3ccc4nc(N)sc4c3)cc2s1` is reported as 49 to 64 µg/mL (broth microdilution; 3610; 20 h, 37 °C).
With `CC1C=CC=CC(C)C2C=CC3CC(C)(O)C(Br)C(C)C3C2C(=O)C(Cl)(Cl)C(=O)C(C)C(=O)O1` (centres unmarked) the MIC was 0.05 µg/mL (microbial growth, broth dilution).
`O=C(O)CN1C(=O)/C(=C/c2ccc(-c3ccc(N(c4ccccc4)c4ccccc4)cc3)cc2)NC1=S` has an MIC of 3.9 µg/mL (broth microdilution; ATCC 6633).
`S=c1n(CN2CCN(Cc3ccccc3)CC2)nc(C23CC4CC(CC(C4)C2)C3)n1-c1ccccc1` has an MIC of 8 µg/mL (two-fold dilution; IFO 3007; 24 h, 36 °C).
`CCOC1C(C)C2C(C=CC3C(C)C=CC=CC(C)OC(=O)C(C)C(=O)C(Cl)(Cl)C(=O)C32)CC1(C)O` (centres unmarked) gave an MIC of > 6.4 µg/mL (microbial growth, broth dilution).
`CCCCCCCCCCCCCCCc1cc(O)cc(O)c1` gave an MIC of 64 µg/mL (microbial growth, broth dilution; 168).
For `CC1C=CC=CC(C)C2C=CC3CC(C)(O)C(Cl)C(C)C3C2C(=O)C(Cl)(Cl)C(=O)C(C)C(=O)O1` (centres unmarked), the MIC was 0.1 µg/mL (microbial growth, broth dilution).
`C/C(=N\Nc1nc(-c2ccccc2)cs1)c1ccc2c(c1)sc1nc(=O)c(C#N)cn12` gave an MIC of < 68 µg/mL (microbial growth, broth dilution).
`COC1C(C)C2C(C=CC3C(C)C=CC=CC(C)OC(=O)C(C)C(=O)C(Cl)(Cl)C(=O)C32)CC1(C)O` (centres unmarked) gave an MIC of 6.4 µg/mL (microbial growth, broth dilution).
`C/C(=N\Nc1nc(C)cs1)c1ccc2c(c1)sc1nc(=O)c(C#N)cn12` has an MIC of < 61 µg/mL (microbial growth, broth dilution).
The MIC of `CCCCCCCCCCCCCCCCCCSCC1OC(OC2C(N)CC(N)C(OC3OC(CN)C(O)CC3N)C2O)C(O)C(N)C1O` (centres unmarked) is reported as 75 µg/mL (168).
With `Cn1c(C23CC4CC(CC(C4)C2)C3)nn(CCN2CCCCC2)c1=S` the MIC was 2 µg/mL (two-fold dilution; IFO 3007; 24 h, 36 °C).
For `CC1C=CC=CC(C)C2C=CC3CC(C)(Cl)C(O)C(C)C3C2C(=O)C(Cl)(Cl)C(=O)C(C)C(=O)O1` (centres unmarked), the MIC was 0.1 µg/mL (microbial growth, broth dilution).
The MIC of `Oc1c(Br)ccc2cccnc12` is reported as 35.7 µM (microbial growth, agar dilution; ATCC6633).
The MIC of `Cn1c(C23CC4CC(CC(C4)C2)C3)nn(CCN2CCCC2)c1=S` is reported as 4 µg/mL (two-fold dilution; IFO 3007; 24 h, 36 °C).
`COC1(C)CC2C=CC3C(C)C=CC=CC(C)OC(=O)C(C)C(=O)C(Cl)(Cl)C(=O)C3C2C(C)C1O` (centres unmarked) has an MIC of > 3.2 µg/mL (microbial growth, broth dilution).

For quick reference, copied from above:
For `CC1C=CC=CC(C)C2C=CC3CC(C)(O)C(Cl)C(C)C3C2C(=O)C(Cl)(Cl)C(=O)C(C)C(=O)O1` (centres unmarked), the MIC was 0.1 µg/mL (microbial growth, broth dilution).
The MIC of `Nc1nc2ccc(Oc3ccc4nc(N)sc4c3)cc2s1` is reported as 49 to 64 µg/mL (broth microdilution; 3610; 20 h, 37 °C).
The MIC of `CCCCCCCCCCCCCCCCCCSCC1OC(OC2C(N)CC(N)C(OC3OC(CN)C(O)CC3N)C2O)C(O)C(N)C1O` (centres unmarked) is reported as 75 µg/mL (168).
For `CC1=CC(C)=[N+]2C1=Cc1ccc(CCC(=O)NCCCn3cc(CCCCC(=O)Oc4ccccc4C(=O)c4cc(Cl)c(Cl)n4-c4c(C(=O)c5ccccc5O)[nH]c(Cl)c4Cl)nn3)n1[B-]2(F)F`, the MIC was 0.25 µg/mL (microbial growth, broth dilution; 168; 20 h).
